Measurements pooled from the literature.
Every numbered part comes from another study and shows a few of its results, in no order.

Series 1 — technique: RNAcompete; form: RNA; sample: in vitro; tested at: 20 nM; notes: 7-mer, probes averaged, single round; baseline: mean of 7-mers; direction: higher = stronger binding
Target: PABPC1L2, full length, GST fusion (mouse, UniProt A0ABA7IW68)
Target sequence (chain): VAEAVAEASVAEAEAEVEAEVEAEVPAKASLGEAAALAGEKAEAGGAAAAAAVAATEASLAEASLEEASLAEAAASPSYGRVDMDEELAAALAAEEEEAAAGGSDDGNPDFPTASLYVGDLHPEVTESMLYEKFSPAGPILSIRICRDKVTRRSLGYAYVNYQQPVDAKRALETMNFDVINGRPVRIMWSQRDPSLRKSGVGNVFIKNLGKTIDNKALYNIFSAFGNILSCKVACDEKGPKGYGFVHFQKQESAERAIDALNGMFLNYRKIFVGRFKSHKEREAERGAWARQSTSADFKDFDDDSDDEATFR
Strand	7-mer Z-score
CGUCAGC	-0.358
GAACGAA	0.177
GCCAUAC	-0.191
CUAAACC	-0.0337
GGCAGCA	0.432
CCGGGUA	-0.103
GGUGACU	0.000733
GUACAAA	1.85
AAGCGAA	0.327
UGCGAUA	0.0388
AUGUCAC	-0.133
GUAAAUU	0.474
AGAGCAC	-0.175

Series 2 — technique: RNA Bind-n-Seq; form: RNA; sample: in vitro; tested at: not given; baseline: input RNA pool; direction: higher = stronger binding
Target: RING finger protein unkempt homolog, zinc fingers 1-6, GST-SBP tag (UNK, Homo sapiens, UniProt Q9C0B0, residues 30-357)
Chain of UniProt Q9C0B0 (30-357, looked up): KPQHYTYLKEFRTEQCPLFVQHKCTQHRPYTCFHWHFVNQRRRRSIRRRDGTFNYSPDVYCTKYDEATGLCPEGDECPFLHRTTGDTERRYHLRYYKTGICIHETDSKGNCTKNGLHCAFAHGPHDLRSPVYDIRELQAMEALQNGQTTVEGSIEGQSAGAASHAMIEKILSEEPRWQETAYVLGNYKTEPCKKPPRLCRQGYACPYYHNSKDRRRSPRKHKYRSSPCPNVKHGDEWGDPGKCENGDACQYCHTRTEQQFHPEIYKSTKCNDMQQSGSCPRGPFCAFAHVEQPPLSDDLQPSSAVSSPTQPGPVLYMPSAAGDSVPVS
Notes: RNA with constant flanks, human-mouse chimeric sites, ends assumed
Strand	bound/input enrichment [ratio]
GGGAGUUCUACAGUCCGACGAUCCAGGGCAUCAUCUCUCGUGCUGUUAGACACCUGUUCAAGAGUAUUGAUGAGAAAAAGACCUCAGCGAUUAAAAACGGGCUUCCUGCUCCUGAAUUCAAAGUGAAUGCCCAAUUCUUAGAGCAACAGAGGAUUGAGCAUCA	0.223
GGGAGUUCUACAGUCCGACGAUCGUACUGCAACAGCAGGGAAAACUGCAGGAAGCUCUGAUGCAUUAUAAGGAGGCUAUUCGAAUCAGUCCUACCUUUGCUGAUGCCUACUCCAAUAUGGGAAACACUCUAAAGGAGAUGCAGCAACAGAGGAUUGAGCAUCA	0.129
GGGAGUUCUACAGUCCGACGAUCUGGCGCCUGCGCUCCCCGUUUUUAAAUUUAAGUGUAUUUUUAUAAGAUACAUGUAUUUACAAUUGAGUUUUUGAUUAAUAAUGCUGAAAUGCUACUGGAGAUUAUGAAAAAUGUUUCAAUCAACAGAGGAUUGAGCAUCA	0.747
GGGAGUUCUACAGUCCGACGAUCAUGGAACAUUUUGAUGCGUCACUCAGUACCUAUUUCAAGGCCUUCCUGGGCCCCCGAGAUACAAGAGUCAAAGGAUGGUUCCUCCUGGACAAUUACAUACCCACAUUUGUCUGUUCUGUUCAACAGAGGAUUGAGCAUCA	0.131
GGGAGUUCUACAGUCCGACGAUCAAAGAACCUCUCUCUGAUGAAGAUGAGGAAGACAAUGAUGAUGUUGAACCCAUUUCUGAAUUUCGAUUUGUGCCUAGUGAUAAAUCAGCAUUGGAGGCGAUGUUCACAGCAAUGUGUGAGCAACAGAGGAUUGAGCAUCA	0.391
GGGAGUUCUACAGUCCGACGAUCAAAUCGUGUGUGUCCAAUAUUGAAAGUGCUUUAUCUACACUCCAGUAUGUAAGCAGUAUAGUAGUUUCUUUAGAGAAUAGGUCAGCCAUUGUGAAGUACAAUGCAAGCUCAGUCACUCCACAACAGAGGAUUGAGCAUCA	28.6
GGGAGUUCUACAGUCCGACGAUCAUUGUUGAAGCGAAUCCACUUUUAGAAGCAUUUGGAAAUGCAAAGACUGUUCGCAACAAUAAUAGCAGUCGAUUUGGAAAAUUUGUAGAAAUACAUUUCAAUGAAAAGAGUUCGGUUGUUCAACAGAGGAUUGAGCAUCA	0.248

Series 3 — technique: universal PBM; form: double-stranded DNA, one strand shown; sample: in vitro; tested at: 600 nM; direction: higher = stronger binding
Target: Sal-like protein 4, full length isoform A (SALL4, Homo sapiens, UniProt Q9UJQ4, residues 1-1053)
Chain of UniProt Q9UJQ4 (whole entry, looked up): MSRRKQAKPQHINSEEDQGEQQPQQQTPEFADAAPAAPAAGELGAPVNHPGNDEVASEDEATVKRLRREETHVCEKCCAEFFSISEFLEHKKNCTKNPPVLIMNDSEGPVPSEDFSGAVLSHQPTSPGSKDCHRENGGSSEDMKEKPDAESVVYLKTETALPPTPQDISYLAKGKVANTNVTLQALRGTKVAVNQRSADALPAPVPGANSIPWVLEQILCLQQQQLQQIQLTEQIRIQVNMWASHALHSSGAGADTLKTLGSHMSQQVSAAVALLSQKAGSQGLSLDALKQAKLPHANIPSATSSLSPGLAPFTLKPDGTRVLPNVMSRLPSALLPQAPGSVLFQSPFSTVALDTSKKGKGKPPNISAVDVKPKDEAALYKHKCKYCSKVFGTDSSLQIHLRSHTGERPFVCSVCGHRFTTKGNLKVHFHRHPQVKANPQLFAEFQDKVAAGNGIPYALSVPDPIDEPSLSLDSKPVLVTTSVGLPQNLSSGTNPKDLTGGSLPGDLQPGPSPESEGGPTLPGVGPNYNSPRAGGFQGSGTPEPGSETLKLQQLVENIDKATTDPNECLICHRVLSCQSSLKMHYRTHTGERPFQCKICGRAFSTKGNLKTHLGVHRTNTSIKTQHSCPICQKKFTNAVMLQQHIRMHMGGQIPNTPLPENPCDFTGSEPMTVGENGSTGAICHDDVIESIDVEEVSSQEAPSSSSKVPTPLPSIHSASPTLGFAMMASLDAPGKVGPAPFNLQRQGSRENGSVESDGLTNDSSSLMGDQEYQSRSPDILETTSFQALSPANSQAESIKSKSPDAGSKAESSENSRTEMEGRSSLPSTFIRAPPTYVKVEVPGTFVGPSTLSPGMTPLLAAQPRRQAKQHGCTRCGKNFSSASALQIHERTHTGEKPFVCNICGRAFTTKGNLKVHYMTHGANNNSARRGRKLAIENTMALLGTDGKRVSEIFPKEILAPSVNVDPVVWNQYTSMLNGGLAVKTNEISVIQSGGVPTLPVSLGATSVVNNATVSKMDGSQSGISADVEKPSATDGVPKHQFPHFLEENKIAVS
Notes: 8-mer, flanks averaged, mean of replicates
Strand	E-score
ACGCCTCA	-0.0765
CCCGGGAA	-0.284
CTATACCA	0.211
GGCGCATA	0.00429
ACTCGCCT	-0.175
CGCACATA	-0.112
CGCGCACC	-0.27
ATATTGGA	0.273
GATTGATA	0.237

Other studies, line by line
Molecule	target	assay	test system	setting	how to read	endpoint	result
PhoQ, residues 284 288 289 292 302 303 TTCLQL	PhoP, residues 12 14 15 18 19 NMSSL (Escherichia coli, UniProt P23836)	Sort-seq, item: YFP reporter	E. coli	PhoQ-PhoP variant library, added: 10 µM Mg2+	baseline: high Mg2+ state, higher = stronger signaling	fold induction	15.5

Some of these lines once more (series 1):
Strand	7-mer Z-score
UGCGAUA	0.0388
AUGUCAC	-0.133
GUAAAUU	0.474
